Measurements gathered from unrelated publications.
Lines come from different studies, so protocols differ. In brackets after ≈: the same amount, converted by molar mass.
Organism: Pseudomonas aeruginosa

CC[C@H](C)[C@H](NC(=O)[C@H](CCCCN)NC(=O)[C@H](CCCCN)NC(=O)[C@H](CC(C)C)NC(=O)[C@H](CCCCN)NC(=O)[C@H](CCC(=O)O)NC(=O)[C@H](CCCCN)NC(=O)[C@@H](NC(=O)[C@H](CCCCN)NC(=O)[C@H](CC(N)=O)NC(=O)[C@H](CCCNC(=N)N)NC(=O)[C@H](Cc1ccccc1)NC(=O)[C@H](CCCCN)NC(=O)[C@H](CCCNC(=N)N)NC(=O)[C@H](CC(C)C)NC(=O)[C@H](CCCNC(=N)N)NC(=O)[C@H](CCCCN)NC(=O)[C@H](CCCNC(=N)N)NC(=O)[C@H](CC(C)C)NC(=O)CN)[C@@H](C)CC)C(=O)NCC(=O)N[C@@H](CCC(N)=O)C(=O)N[C@@H](CCCCN)C(=O)N[C@H](C(=O)N[C@@H](CCC(N)=O)C(=O)NCC(=O)N[C@@H](Cc1ccccc1)C(=O)N[C@H](C(=O)N1CCC[C@H]1C(=O)N[C@@H](CCCCN)C(=O)N[C@@H](CC(C)C)C(=O)N[C@@H](C)C(=O)N1CCC[C@H]1C(=O)N[C@@H](CCCNC(=N)N)C(=O)N[C@H](C(=O)N[C@@H](CC(=O)O)C(=O)N[C@@H](Cc1ccc(O)cc1)C(=O)O)[C@@H](C)O)C(C)C)[C@@H](C)CC  lethal concentration (inhibition zone method; 11082603, LB 0.8% agar with 154 mM NaCl; overnight, 37 °C): 2.19 µM
CCCCCCCCCC(=O)NCCCC[C@H](NC(=O)[C@H](CCCCN)NC(=O)[C@@H]1CSCC(=O)N[C@@H](CCCCN)C(=O)N[C@@H](CC(C)C)C(=O)N[C@@H](CCCCN)C(=O)N[C@H]2CCCCNC(=O)[C@H](CCCCN)NC(=O)[C@H](CC(C)C)NC(=O)[C@H](CCCCN)NC(=O)CSC[C@H](NC(=O)[C@H](CC(C)C)NC(=O)[C@H](CC(C)C)NC(=O)[C@H](CCCCN)NC2=O)C(=O)N[C@@H](CC(C)C)C(=O)N[C@@H](CC(C)C)C(=O)N[C@@H](CC(C)C)C(=O)N1)C(N)=O  minimal biofilm inhibitory concentration (PAO1; 24 to 25 h): 128 µg/mL
CC[C@H](C)[C@H](NC(=O)[C@H](CCCCN)NC(=O)[C@H](CCCCN)NC(=O)[C@H](CC(C)C)NC(=O)[C@H](CCCCN)NC(=O)[C@H](CCC(=O)O)NC(=O)[C@H](CCCCN)NC(=O)[C@@H](NC(=O)[C@H](CCCCN)NC(=O)[C@H](CC(N)=O)NC(=O)[C@H](CCCNC(=N)N)NC(=O)[C@H](Cc1ccccc1)NC(=O)[C@H](CCCCN)NC(=O)[C@H](CCCNC(=N)N)NC(=O)[C@H](CC(C)C)NC(=O)[C@H](CCCNC(=N)N)NC(=O)[C@H](CCCCN)NC(=O)[C@H](CCCNC(=N)N)NC(=O)[C@H](CC(C)C)NC(=O)[C@@H](N)CCCNC(=N)N)[C@@H](C)CC)C(=O)NCC(=O)N[C@@H](CCC(N)=O)C(=O)N[C@@H](CCCCN)C(=O)N[C@H](C(=O)N[C@@H](CCC(N)=O)C(=O)NCC(=O)N[C@@H](Cc1ccccc1)C(=O)N[C@H](C(=O)N1CCC[C@H]1C(=O)N[C@@H](CCCCN)C(=O)N[C@@H](CC(C)C)C(=O)N[C@@H](CCC(N)=O)C(=O)N1CCC[C@H]1C(=O)N[C@@H](CO)C(=O)N[C@@H](CCCCN)C(=O)N[C@@H](CCC(N)=O)C(=O)N[C@@H](CO)C(=O)O)C(C)C)[C@@H](C)CC  lethal concentration (inhibition zone; FRD1; LB agar, overnight): 4.46 µM
CC[C@H](C)[C@H](NC(=O)[C@H](Cc1c[nH]cn1)NC(=O)[C@H](CCCCNC(=O)[C@@H](NC(=O)[C@H](CCCCN)NC(=O)CSC[C@H](NC(=O)[C@H](Cc1ccccc1)NC(=O)[C@H](CCCCNC(=O)[C@H](CC(C)C)NC(=O)[C@@H]1CCCN1C(=O)[C@H](CCCCN)NC(=O)c1ccc(O[C@@H]2O[C@H](CO)[C@H](O)[C@H](O)[C@H]2O)cc1)NC(=O)[C@H](CC(C)C)NC(=O)[C@@H]1CCCN1C(=O)[C@H](CCCCN)NC(=O)C[C@@H]1O[C@@H](C)[C@@H](O)[C@@H](O)[C@@H]1O)C(N)=O)[C@@H](C)CC)NC(=O)[C@@H](NC(=O)[C@H](CCCCN)NC(=O)CSC[C@H](NC(=O)[C@H](Cc1ccccc1)NC(=O)[C@H](CCCCNC(=O)[C@H](CC(C)C)NC(=O)[C@@H]1CCCN1C(=O)[C@H](CCCCN)NC(=O)c1ccc(O[C@@H]2O[C@H](CO)[C@H](O)[C@H](O)[C@H]2O)cc1)NC(=O)[C@H](CC(C)C)NC(=O)[C@@H]1CCCN1C(=O)[C@H](CCCCN)NC(=O)C[C@@H]1O[C@@H](C)[C@@H](O)[C@@H](O)[C@@H]1O)C(N)=O)[C@@H](C)CC)C(N)=O  MBIC (biofilm formation; PAO1; 24 h): 30 µM
CCCCCC(=O)NCC(=O)N[C@@H](CC(C)C)C(=O)N[C@@H](CC(C)C)C(=O)N[C@@H](CCCCN)C(=O)N[C@@H](CCCNC(=N)N)C(=O)N[C@H](C(=O)N[C@@H](CCCCN)C(=O)N[C@H](C(=O)N[C@@H](CC(C)C)C(=O)N[C@@H](CC(C)C)C(=O)NCCCC[C@H](NC(=O)[C@H](CCCCNC(=O)[C@H](CC(C)C)NC(=O)[C@H](CC(C)C)NC(=O)[C@@H](NC(=O)[C@H](CCCCN)NC(=O)[C@@H](NC(=O)[C@H](CCCNC(=N)N)NC(=O)[C@H](CCCCN)NC(=O)[C@H](CC(C)C)NC(=O)[C@H](CC(C)C)NC(=O)CNC(=O)CCCCC)[C@@H](C)CC)[C@@H](C)O)NC(=O)[C@H](CC(C)C)NC(=O)[C@H](CC(C)C)NC(=O)[C@@H](NC(=O)[C@H](CCCCN)NC(=O)[C@@H](NC(=O)[C@H](CCCNC(=N)N)NC(=O)[C@H](CCCCN)NC(=O)[C@H](CC(C)C)NC(=O)[C@H](CC(C)C)NC(=O)CNC(=O)CCCCC)[C@@H](C)CC)[C@@H](C)O)C(N)=O)[C@@H](C)O)[C@@H](C)CC  FIC index (checkerboard; ATCC 27853; with: rifampicin): 0.375
CC[C@H](C)[C@H](NC(=O)[C@H](CCCCN)NC(=O)[C@H](CCCCN)NC(=O)[C@H](CC(C)C)NC(=O)[C@H](CCCCN)NC(=O)[C@H](CCC(=O)O)NC(=O)[C@H](CCCCN)NC(=O)[C@@H](NC(=O)[C@H](CCCCN)NC(=O)[C@H](CC(N)=O)NC(=O)[C@H](CCCNC(=N)N)NC(=O)[C@H](Cc1ccccc1)NC(=O)[C@H](CCCCN)NC(=O)[C@H](CCCNC(=N)N)NC(=O)[C@H](CC(C)C)NC(=O)[C@H](CCCNC(=N)N)NC(=O)[C@H](CCCCN)NC(=O)[C@H](CCCNC(=N)N)NC(=O)[C@@H](N)CC(C)C)[C@@H](C)CC)C(=O)NCC(=O)N[C@@H](CCC(N)=O)C(=O)N[C@@H](CCCCN)C(=O)N[C@H](C(=O)N[C@@H](CCC(N)=O)C(=O)NCC(=O)N[C@@H](Cc1ccccc1)C(=O)N[C@H](C(=O)N1CCC[C@H]1C(=O)N[C@@H](CCCCN)C(=O)N[C@@H](CC(C)C)C(=O)O)C(C)C)[C@@H](C)CC  lethal concentration (inhibition zone method; 11082616, LB 0.8% agar with 154 mM NaCl; overnight, 37 °C): 3.54 µM
C[C@@H](O)[C@H](NC(=O)c1ccc(C#Cc2ccc(CN3CCOCC3)cc2)cc1)C(=O)NO  MIC90 (microbial growth; PAO1): 1 µg/mL (≈ 2.29 µM)
CC(C)C[C@@H]1NC(=O)[C@H](CCN)NC(=O)CSC[C@@H](C(=O)N[C@@H](CCN)C(N)=O)NC(=O)[C@H](CC(C)C)NC(=O)[C@H](CC(C)C)NC(=O)[C@H](CC(C)C)NC(=O)[C@@H]2CSCC(=O)N[C@@H](CCN)C(=O)N[C@@H](CC(C)C)C(=O)N[C@@H](CCN)C(=O)N[C@@H](CCCCNC(=O)[C@H](CCN)NC1=O)C(=O)N[C@@H](CCN)C(=O)N[C@@H](CC(C)C)C(=O)N[C@@H](CC(C)C)C(=O)N2  minimal biofilm inhibitory concentration (PAO1; 24 to 25 h): > 32 µg/mL
CC(CCC(=O)[O-])C1CCC2C3CCC4CC(O)CCC4(C)C3CC(O)C12C.C[N+](C)(C)CC(O)CC(=O)O (stereo not drawn)  antibacterial activity (TISTR357; 1 mg per disc, 18 to 24 h, 37 °C): inactive
Nc1ccccc1C(=O)NS(=O)(=O)NC[C@H]1O[C@@H](n2cnc3c(N)ncnc32)[C@H](O)[C@@H]1O  lowest effective concentration (HHQ and PQS production, inhibitor, LC-MS/MS; PA14; up to 24 h): 100 µM
CCCCCCCCCC(=O)NCC(=O)N[C@@H](CC(C)C)C(=O)N[C@@H](CC(C)C)C(=O)N[C@@H](CCCCN)C(=O)N[C@@H](CCCNC(=N)N)C(=O)N[C@H](C(=O)N[C@@H](CCCCN)C(=O)N[C@H](C(=O)N[C@@H](CC(C)C)C(=O)N[C@@H](CC(C)C)C(N)=O)[C@@H](C)O)[C@@H](C)CC  FIC index (checkerboard; ATCC 27853; with: rifampicin): 0.5
CC(C)[C@H](N)C(=O)N[C@H]1CSSC[C@@H](C(=O)N[C@H](C(N)=O)C(C)C)NC(=O)[C@H](Cc2c[nH]c3ccccc23)NC(=O)[C@H](CCCCN)NC(=O)[C@H](CCCCN)NC(=O)[C@H](Cc2c[nH]c3ccccc23)NC(=O)[C@H](CCCCN)NC(=O)[C@H](CCCNC(=N)N)NC(=O)[C@H](CCCCN)NC(=O)[C@H](Cc2c[nH]c3ccccc23)NC(=O)[C@H](CCCCN)NC(=O)[C@H](CCCCN)NC(=O)[C@H](Cc2c[nH]c3ccccc23)NC(=O)[C@H](CCCNC(=N)N)NC(=O)[C@H](CCCCN)NC1=O  time to complete killing (CICC 21625; 10 x MIC): ≤ 1 min

Excerpt of the above:
CC[C@H](C)[C@H](NC(=O)[C@H](CCCCN)NC(=O)[C@H](CCCCN)NC(=O)[C@H](CC(C)C)NC(=O)[C@H](CCCCN)NC(=O)[C@H](CCC(=O)O)NC(=O)[C@H](CCCCN)NC(=O)[C@@H](NC(=O)[C@H](CCCCN)NC(=O)[C@H](CC(N)=O)NC(=O)[C@H](CCCNC(=N)N)NC(=O)[C@H](Cc1ccccc1)NC(=O)[C@H](CCCCN)NC(=O)[C@H](CCCNC(=N)N)NC(=O)[C@H](CC(C)C)NC(=O)[C@H](CCCNC(=N)N)NC(=O)[C@H](CCCCN)NC(=O)[C@H](CCCNC(=N)N)NC(=O)[C@H](CC(C)C)NC(=O)[C@@H](N)CCCNC(=N)N)[C@@H](C)CC)C(=O)NCC(=O)N[C@@H](CCC(N)=O)C(=O)N[C@@H](CCCCN)C(=O)N[C@H](C(=O)N[C@@H](CCC(N)=O)C(=O)NCC(=O)N[C@@H](Cc1ccccc1)C(=O)N[C@H](C(=O)N1CCC[C@H]1C(=O)N[C@@H](CCCCN)C(=O)N[C@@H](CC(C)C)C(=O)N[C@@H](CCC(N)=O)C(=O)N1CCC[C@H]1C(=O)N[C@@H](CO)C(=O)N[C@@H](CCCCN)C(=O)N[C@@H](CCC(N)=O)C(=O)N[C@@H](CO)C(=O)O)C(C)C)[C@@H](C)CC  lethal concentration (inhibition zone; FRD1; LB agar, overnight): 4.46 µM
